Assay results of several laboratories.
Protocols differ between the studies behind these lines. ± marks the error that the study gave. Converted amounts (≈) assume the structure as drawn.
Organism: Staphylococcus aureus

N=C(N)NCCC[C@@H]1NC(=O)[C@H](CCCNC(=N)N)NC(=O)[C@@H](CCCNC(=N)N)NC(=O)[C@@H](CCCNC(=N)N)NC(=O)[C@@H](C(c2ccccc2)c2ccccc2)NC(=O)[C@H](Cc2c[nH]c3ccccc23)NC(=O)[C@@H](C(c2ccccc2)c2ccccc2)NC1=O
biofilm reduction (MRSA ATCC BAA-1556; 2 × MIC, 24 h, pre-formed biofilm): 63 to 69%

COc1c(C)c(OC(=O)c2ccccc2)c(C)c(OC(=O)c2ccccc2)c1C(=O)/C=C/c1ccccc1
MBC (microbial killing, broth dilution; ATCC25923): > 5000 µg/mL

C=C(NC(=O)c1csc(-c2nc3c(cc2O)-c2nc(cs2)C(=O)NC(C(C)O)C(=O)NC(=C(C)OC)c2nc(cs2)C(=O)NC2c4nc(cs4)C(=O)NC(COC(=O)c4c5c6c(cccc6n4O)COC(=O)C(OC4CC(C)(O)C(N(C)C)C(C)O4)C2OC5)c2nc-3cs2)n1)C(N)=O (stereo not shown)
post-antibiotic effect (ATCC 43300 MRSA; 1/2×MIC, 3 h exposure): 0.87 ± 0.16 h

C=CS(=O)(=O)NCCCCCCOCc1cn(CCCCCCNS(=O)(=O)C=C)n[n+]1C
IC50 (growth, turbidity OD600; 24 h): > 100 µM

O=c1c(O)ccccc1O
MIC80 (microbial growth, broth dilution; ATCC29213): 66.7 µM (≈ 9.21 µg/mL)

CC[C@H](C)[C@H](NC(=O)[C@H](CC1CCCCC1)NC(=O)[C@H](Cc1c[nH]c2ccccc12)NC(=O)[C@@H](N)CCCN)C(=O)N[C@H](Cc1ccccc1)C(=O)N[C@@H](Cc1cn(Cc2ccccc2)cn1)C(N)=O
IC50 (ATCC 33591, methicillin-resistant): > 20 µg/mL

C=CC(=O)NCCCCOCc1cn(CCCCNC(=O)C=C)n[n+]1C
IC50 (growth, turbidity OD600; 24 h): > 100 µM

CCCCCCCC(=O)Oc1c(C)c(OC)c2c(/C=C/c3ccccc3)c(CCCCCC)c(=O)oc2c1C
MBC (microbial killing, broth dilution; ATCC25923): > 5000 µg/mL

CC(CCCOC(=O)CCC[N+](C)(C)C)C1CCC2C3C(OC(=O)CCC[N+](C)(C)C)CC4CC(OC(=O)CCC[N+](C)(C)C)CCC4(C)C3CC(OC(=O)CCC[N+](C)(C)C)C12C (stereo not shown)
inhibition zone (microbial growth, disc diffusion; ATCC29213; 62.5 µg/disc, 24 h): 11 mm

CC[C@H](C)[C@H](N)C1=N[C@H](C(=O)N[C@@H](CC(C)C)C(=O)N[C@H](CCC(=O)O)C(=O)N[C@H](C(=O)N[C@H]2CCCCNC(=O)[C@H](CC(N)=O)NC(=O)[C@@H](CC(=O)O)NC(=O)[C@H](Cc3c[nH]cn3)NC(=O)[C@@H](Cc3ccccc3)NC(=O)[C@H]([C@@H](C)CC)NC(=O)[C@@H](CCCN)NC2=O)[C@@H](C)CC)CS1
MIC (ATCC 29213 methicillin-susceptible; 18 h, 37 °C, 0.3 mM ZnSO4 LB): 2 µg/mL (≈ 1.41 µM)

CC[C@H](C)[C@H](NC(=O)[C@H](CC1CCCCC1)NC(=O)[C@H](Cc1ccccc1)NC(=O)[C@@H](N)CCCN)C(=O)N[C@H](Cc1ccccc1)C(=O)N[C@@H](Cc1cn(Cc2ccccc2)cn1)C(N)=O
IC50 (bacterial growth; ATCC 29213): > 20 µg/mL

CC[C@H](C)[C@H](NC(=O)[C@H](CCCN)NC(=O)[C@H](CC(N)=O)NC(=O)[C@H](Cc1c[nH]c2ccccc12)NC(=O)[C@H](Cc1ccccc1)NC(=O)[C@H](CCCN)NC(=O)[C@H](CCCCNC(=N)N)NC(=O)[C@H](CC(C)C)NC(=O)[C@H](Cc1c[nH]c2ccccc12)NC(=O)[C@H](CCCN)NC(=O)[C@H](CCCCNC(=N)N)NC(=O)[C@H](CC(C)C)NC(=O)CNC(C)=O)C(=O)N[C@@H](CCCN)C(=O)N[C@@H](CCCCNC(=N)N)C(N)=O
MIC fold change (concentration not given, with: MgCl2 1 mM; relative to: no added salt): 1 fold

CC(CCCOC(=O)CCC[N+](C)(C)C)C1CCC2C3CCC4CC(OC(=O)CCC[N+](C)(C)C)CCC4(C)C3CC(OC(=O)CCC[N+](C)(C)C)C12C (stereo not shown)
inhibition zone (microbial growth, disc diffusion; ATCC29213; 250 µg/disc, 24 h): 29 mm

CC(C)[C@@H](NC(=O)[C@H](CC1CCCCC1)NC(=O)[C@@H](Cc1c[nH]c2ccccc12)NC(=O)[C@@H](N)CCCN)C(=O)N[C@H](Cc1ccccc1)C(=O)N[C@@H](Cc1cn(Cc2ccccc2)cn1)C(N)=O
IC50 (ATCC 33591, methicillin-resistant): > 20 µg/mL

CC[C@H]1OC(=O)[C@H](C)C(=O)[C@H](C)[C@@H](O[C@@H]2O[C@H](C)C[C@H](N(C)C)[C@H]2O)[C@](C)(OC)C[C@@H](C)C(=O)[C@H](C)[C@H]2N(CCCCn3cnc(-c4cccnc4)c3)C(=O)O[C@]12C
MIC (ATCC 43300 MRSA): 128 µg/mL (≈ 158 µM)

CC(C)c1ccc2c(c1)CCC1C(C)(CN(CC(O)C[N+](C)(C)C)CC(O)C[N+](C)(C)C)CCCC21C (stereo not shown)
inhibition zone (microbial growth, disc diffusion; ATCC29213; 62.5 µg/disc, 24 h): 14 mm

CC[C@H](C)[C@H](NC(=O)[C@H](CC1CCCCC1)NC(=O)[C@@H]1CCCN1C(=O)[C@@H](N)CCCN)C(=O)N[C@H](Cc1ccccc1)C(=O)N[C@@H](Cc1cn(Cc2ccccc2)cn1)C(N)=O
IC50 (bacterial growth; ATCC 29213): > 20 µg/mL

O=c1c(O)ccccc1Br
MIC80 (microbial growth, broth dilution; ATCC29213): 16.1 µM (≈ 3.24 µg/mL)

CC(C)C1=CC2=CCC3C(C)(C(=O)OCCC[N+](C)(C)C)CCCC3(C)C2CC1 (stereo not shown)
inhibition zone (microbial growth, disc diffusion; ATCC29213; 62.5 µg/disc, 24 h): 17 mm

C=CS(=O)(=O)NCCCCOCc1cn(CCCCNS(=O)(=O)C=C)n[n+]1C
IC50 (growth, turbidity OD600; 24 h): > 100 µM

C=C1CN(C(=N)N)CC2Nc3c(F)cc(Br)cc3C12CCNS(=O)(=O)c1ccc(Cl)cc1.O=C(O)C(F)(F)F (stereo not shown)
minimum resensitizing concentration (MRSA ATCC BAA-44; with: cefazolin): 2 µg/mL

O=C1C=CC(=O)N1CCCCCCOCc1cn(CCCCCCN2C(=O)C=CC2=O)nn1
IC50 (growth, turbidity OD600; 24 h): > 100 µM

COc1cc2c(cc1OC)-c1cc3ccc(OC)c(OC)c3c[n+]1CC2.[Cl][Fe-]([Cl])([Cl])[Cl]
MIC50 (24 h, 37 °C): 165 µM

C[n+]1nn(CCCCN2C(=O)C=CC2=O)cc1COCCCCN1C(=O)C=CC1=O
IC50 (growth, turbidity OD600; 24 h): > 100 µM

COc1c(C)c(OCc2ccccc2)c(C)c(OCc2ccccc2)c1C(=O)/C=C/c1ccccc1
MBC (microbial killing, broth dilution; ATCC25923): > 5000 µg/mL
